Assay results of several laboratories.
Compare with care: the assays were run in different laboratories. “And” joins repeats or separate records; there may be more than shown. Numbers after ± are the reported error.
MT-CYB/UQCRFS1: MT-CYB/UQCRFS1 (Homo sapiens, UniProt P00156+P47985)
Chain of UniProt P47985 (whole entry, looked up): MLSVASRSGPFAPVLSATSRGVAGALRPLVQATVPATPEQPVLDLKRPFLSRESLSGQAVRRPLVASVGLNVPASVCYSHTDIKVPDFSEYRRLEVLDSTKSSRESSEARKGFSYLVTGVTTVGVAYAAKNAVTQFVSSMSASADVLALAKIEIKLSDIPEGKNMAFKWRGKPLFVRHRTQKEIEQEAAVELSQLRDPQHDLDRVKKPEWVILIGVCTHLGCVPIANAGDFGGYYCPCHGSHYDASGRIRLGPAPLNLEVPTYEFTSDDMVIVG
Chain of UniProt P00156 (whole entry, looked up): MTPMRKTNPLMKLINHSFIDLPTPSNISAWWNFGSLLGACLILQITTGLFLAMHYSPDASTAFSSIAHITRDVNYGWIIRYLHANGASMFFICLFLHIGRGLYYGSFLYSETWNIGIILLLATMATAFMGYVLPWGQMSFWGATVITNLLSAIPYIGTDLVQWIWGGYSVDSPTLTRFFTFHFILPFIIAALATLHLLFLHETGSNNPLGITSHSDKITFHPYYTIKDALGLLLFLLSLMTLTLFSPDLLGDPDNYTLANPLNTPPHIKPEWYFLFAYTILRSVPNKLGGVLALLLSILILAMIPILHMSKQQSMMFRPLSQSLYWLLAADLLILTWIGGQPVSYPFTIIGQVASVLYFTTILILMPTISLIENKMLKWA
Dehaloperoxidase B ferric: Dehaloperoxidase B, ferric (Amphitrite ornata, UniProt Q9NAV7)
KEAP1 Kelch domain: Kelch-like ECH-associated protein 1, Kelch domain (KEAP1, Homo sapiens, UniProt Q14145)
Chain of UniProt P53634 (whole entry, looked up): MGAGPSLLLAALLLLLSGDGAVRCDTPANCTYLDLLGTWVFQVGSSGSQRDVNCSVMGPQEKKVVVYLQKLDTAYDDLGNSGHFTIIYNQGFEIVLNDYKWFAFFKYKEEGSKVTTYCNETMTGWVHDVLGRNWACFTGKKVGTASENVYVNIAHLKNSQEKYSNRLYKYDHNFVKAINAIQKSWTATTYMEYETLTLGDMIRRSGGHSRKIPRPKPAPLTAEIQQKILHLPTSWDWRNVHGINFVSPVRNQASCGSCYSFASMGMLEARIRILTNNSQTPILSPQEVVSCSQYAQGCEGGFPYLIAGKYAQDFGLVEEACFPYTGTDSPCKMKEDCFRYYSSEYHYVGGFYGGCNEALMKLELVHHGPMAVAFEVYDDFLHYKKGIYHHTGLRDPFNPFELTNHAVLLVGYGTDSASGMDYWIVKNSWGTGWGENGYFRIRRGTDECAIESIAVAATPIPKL
Chain of UniProt Q14145 (whole entry, looked up): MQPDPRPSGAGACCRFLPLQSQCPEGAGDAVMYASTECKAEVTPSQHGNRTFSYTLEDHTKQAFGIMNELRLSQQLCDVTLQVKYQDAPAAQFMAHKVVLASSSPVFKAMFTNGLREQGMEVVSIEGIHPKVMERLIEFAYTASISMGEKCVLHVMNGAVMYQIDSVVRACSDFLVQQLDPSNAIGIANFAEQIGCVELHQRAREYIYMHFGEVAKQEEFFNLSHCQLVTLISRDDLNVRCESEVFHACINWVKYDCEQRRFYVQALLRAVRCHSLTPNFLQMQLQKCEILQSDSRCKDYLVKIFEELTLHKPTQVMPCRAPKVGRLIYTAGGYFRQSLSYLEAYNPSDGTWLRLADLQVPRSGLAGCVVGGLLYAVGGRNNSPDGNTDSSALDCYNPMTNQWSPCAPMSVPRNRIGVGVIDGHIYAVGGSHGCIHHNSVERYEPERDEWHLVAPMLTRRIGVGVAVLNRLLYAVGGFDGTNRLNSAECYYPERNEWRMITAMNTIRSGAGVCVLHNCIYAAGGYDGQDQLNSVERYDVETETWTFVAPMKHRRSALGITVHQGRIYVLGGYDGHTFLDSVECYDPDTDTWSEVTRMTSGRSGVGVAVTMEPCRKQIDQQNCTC
Chain of UniProt P51575 (whole entry, unmodified, looked up): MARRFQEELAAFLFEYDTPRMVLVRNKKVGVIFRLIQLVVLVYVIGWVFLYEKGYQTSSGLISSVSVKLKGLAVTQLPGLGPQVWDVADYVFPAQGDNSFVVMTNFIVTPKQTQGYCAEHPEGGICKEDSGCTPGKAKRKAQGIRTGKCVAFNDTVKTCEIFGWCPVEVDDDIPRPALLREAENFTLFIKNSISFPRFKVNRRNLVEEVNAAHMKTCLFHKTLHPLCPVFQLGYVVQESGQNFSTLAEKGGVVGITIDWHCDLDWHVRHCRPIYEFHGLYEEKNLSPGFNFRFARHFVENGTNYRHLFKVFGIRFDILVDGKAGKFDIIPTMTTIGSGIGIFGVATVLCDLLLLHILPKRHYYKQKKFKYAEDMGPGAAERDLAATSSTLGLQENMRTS
Chain of UniProt F1QCV2 (whole entry, looked up): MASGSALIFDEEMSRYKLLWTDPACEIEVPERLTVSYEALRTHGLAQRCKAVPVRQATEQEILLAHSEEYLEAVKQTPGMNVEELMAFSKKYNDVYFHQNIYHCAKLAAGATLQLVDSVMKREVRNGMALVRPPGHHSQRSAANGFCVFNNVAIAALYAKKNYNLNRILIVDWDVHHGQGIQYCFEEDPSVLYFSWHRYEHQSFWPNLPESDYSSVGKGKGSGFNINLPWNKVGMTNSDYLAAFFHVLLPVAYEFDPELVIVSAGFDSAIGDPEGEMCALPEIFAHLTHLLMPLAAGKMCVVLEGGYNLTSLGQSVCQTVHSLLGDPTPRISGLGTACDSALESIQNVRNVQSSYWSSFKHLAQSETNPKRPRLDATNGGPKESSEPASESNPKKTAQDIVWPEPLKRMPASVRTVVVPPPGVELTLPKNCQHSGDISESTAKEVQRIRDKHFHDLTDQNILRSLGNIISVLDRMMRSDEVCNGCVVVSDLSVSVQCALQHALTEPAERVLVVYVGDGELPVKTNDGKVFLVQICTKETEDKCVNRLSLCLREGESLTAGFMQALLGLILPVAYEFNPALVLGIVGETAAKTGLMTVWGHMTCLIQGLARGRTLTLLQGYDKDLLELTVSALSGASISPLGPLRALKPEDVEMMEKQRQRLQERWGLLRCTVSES
Chain of UniProt Q99JA4 (whole entry, looked up): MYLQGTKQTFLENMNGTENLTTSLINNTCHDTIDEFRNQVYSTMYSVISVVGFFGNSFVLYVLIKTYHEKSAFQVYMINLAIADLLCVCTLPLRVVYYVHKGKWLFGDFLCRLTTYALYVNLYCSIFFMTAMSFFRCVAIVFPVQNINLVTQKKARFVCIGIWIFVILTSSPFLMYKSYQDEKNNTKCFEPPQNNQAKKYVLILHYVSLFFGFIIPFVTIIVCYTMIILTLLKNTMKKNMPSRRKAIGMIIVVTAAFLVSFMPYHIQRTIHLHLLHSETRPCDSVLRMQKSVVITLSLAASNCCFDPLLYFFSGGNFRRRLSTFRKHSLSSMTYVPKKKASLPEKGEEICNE
Chain of UniProt O15146 (whole entry, looked up): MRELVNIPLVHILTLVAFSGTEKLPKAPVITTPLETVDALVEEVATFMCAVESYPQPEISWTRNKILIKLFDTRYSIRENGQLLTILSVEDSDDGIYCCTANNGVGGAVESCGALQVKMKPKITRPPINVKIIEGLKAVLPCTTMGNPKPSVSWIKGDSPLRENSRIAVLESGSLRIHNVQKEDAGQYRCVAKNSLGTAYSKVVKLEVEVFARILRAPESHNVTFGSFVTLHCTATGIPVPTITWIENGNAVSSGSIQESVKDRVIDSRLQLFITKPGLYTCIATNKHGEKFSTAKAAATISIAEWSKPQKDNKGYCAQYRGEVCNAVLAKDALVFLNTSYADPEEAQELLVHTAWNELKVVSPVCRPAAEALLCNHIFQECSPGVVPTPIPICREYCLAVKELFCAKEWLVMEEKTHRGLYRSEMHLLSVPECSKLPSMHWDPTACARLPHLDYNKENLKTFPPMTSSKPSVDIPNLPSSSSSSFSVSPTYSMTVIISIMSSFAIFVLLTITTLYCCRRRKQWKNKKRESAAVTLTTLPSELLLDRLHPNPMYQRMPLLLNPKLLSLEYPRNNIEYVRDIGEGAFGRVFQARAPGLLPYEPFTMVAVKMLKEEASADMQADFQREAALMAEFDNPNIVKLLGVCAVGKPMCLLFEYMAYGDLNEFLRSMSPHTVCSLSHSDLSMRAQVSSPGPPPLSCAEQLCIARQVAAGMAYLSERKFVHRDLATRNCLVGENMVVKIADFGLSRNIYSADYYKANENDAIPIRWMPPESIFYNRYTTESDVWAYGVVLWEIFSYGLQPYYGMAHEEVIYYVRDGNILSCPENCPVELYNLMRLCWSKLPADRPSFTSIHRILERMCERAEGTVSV
Chain of UniProt Q8K3Y3 (whole entry, looked up): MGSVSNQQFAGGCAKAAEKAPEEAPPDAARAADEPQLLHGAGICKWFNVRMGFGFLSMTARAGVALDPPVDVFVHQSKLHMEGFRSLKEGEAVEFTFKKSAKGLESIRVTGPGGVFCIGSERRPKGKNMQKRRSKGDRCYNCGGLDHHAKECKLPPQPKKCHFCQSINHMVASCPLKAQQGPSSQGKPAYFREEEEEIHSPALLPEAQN
Chain of UniProt P61619 (whole entry, looked up): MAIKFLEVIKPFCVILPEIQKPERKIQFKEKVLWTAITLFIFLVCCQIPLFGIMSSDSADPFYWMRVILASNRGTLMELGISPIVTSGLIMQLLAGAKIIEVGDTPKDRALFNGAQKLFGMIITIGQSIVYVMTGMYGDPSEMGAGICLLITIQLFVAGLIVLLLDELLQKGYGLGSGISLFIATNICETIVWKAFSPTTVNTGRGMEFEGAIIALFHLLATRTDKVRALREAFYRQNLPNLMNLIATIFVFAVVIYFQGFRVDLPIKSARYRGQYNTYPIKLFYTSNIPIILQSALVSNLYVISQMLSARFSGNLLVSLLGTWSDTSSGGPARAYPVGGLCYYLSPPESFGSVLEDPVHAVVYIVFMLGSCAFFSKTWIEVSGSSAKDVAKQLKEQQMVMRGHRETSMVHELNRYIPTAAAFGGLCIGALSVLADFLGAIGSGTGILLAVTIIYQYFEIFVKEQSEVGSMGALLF
Chain of UniProt P31941 (whole entry, looked up): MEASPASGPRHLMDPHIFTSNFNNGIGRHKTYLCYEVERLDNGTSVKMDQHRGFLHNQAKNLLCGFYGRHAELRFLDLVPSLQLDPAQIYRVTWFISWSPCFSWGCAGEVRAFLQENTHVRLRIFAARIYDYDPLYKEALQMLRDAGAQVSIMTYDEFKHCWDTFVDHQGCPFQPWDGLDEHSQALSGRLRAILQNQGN

`NC(=O)NO` — result for “oxygen consumption rate”: 82.7 ± 3.74% (MT-CYB/UQCRFS1; complex III-dependent respiration, Seahorse XF96; HCT-116; 200 µM, 24 h; relative to: control).
Under “BAL fluid PGD2 level”, `CC(C)(O)c1ccccc1CC[C@@H](SCC1(CC(=O)O)CC1)c1cccc(/C=C/c2ccc3ccc(Cl)cc3n2)c1` is recorded as “inhibited” (Cysteinyl leukotriene receptor 1 (Mus musculus, UniProt Q99JA4); female mice; intraperitoneal, 30 mg/kg).
For `COc1cc(C(=O)NS(=O)(=O)c2ccccc2C)ccc1Cc1cn(C)c2ccc(NC(=O)OC3CCCC3)cc12`, the Hill coefficient was 1.23 (LRRC8A/LRRC8C (Homo sapiens, UniProt Q8IWT6+Q8TDW0, M48D/T48D); whole-cell patch clamp; HCT116 LRRC8-/- transfected; at +100 mV).
For `O=C1C=Nc2ccc(Br)cc21`, “share of total products” read 49.2% (Dehaloperoxidase B ferric; product, HPLC; added: 5-bromoindole 500 µM, H2O2 500 µM).
The inhibition of `Cc1cccc(N(O)N=Nc2ccc(S(=O)(=O)Nc3cc(C)on3)cc2)c1` is reported as 7.5 ± 0.54% (α-glucosidase, rat intestine; enzyme activity; 20 µg/mL, added: 4-nitrophenyl α-D-glucopyranoside).
With `CC[C@H](C)[C@H](NC(=O)[C@@H]1CCCN1C(=O)[C@H](CC(C)C)NC(=O)[C@H](Cc1ccccc1)NC(=O)[C@H](CCC(=O)O)NC(=O)CNC(=O)[C@@H](NC(=O)[C@H](CCC(=O)O)NC(=O)[C@@H]1CCCN1C(=O)[C@H](CC(=O)O)NC(=O)[C@H](CC(C)C)NC(=O)[C@H](CCC(N)=O)NC(=O)[C@H](CC(C)C)NC(=O)[C@H](CCC(N)=O)NC(=O)[C@H](C)NC(=O)[C@H](Cc1ccccc1)NC(C)=O)[C@@H](C)O)C(=O)N[C@@H](CCC(N)=O)C(=O)N1CCC[C@H]1C(=O)N[C@@H](C)C(=O)N[C@@H](CCC(N)=O)C(N)=O` the binding stoichiometry was 1.04 (KEAP1 Kelch domain; ITC; concentration not given).
`CC(=O)NCCCCNCCC(=O)Nc1ccc2c(C)cc(=O)oc2c1` has a substrate conversion of 93.3% (Polyamine deacetylase HDAC10 (hdac10, Danio rerio, UniProt F1QCV2); substrate; enzyme 0.1 µL/well).
`CC(=O)c1c(C)c2cnc(Nc3ccc(N4CCN(CCCOc5ccc(CN6CCC(c7ccc8c(c7)CN(C7CCC(=O)NC7=O)C8=O)CC6)cc5)CC4)cn3)nc2n(C2CCCC2)c1=O` (centres unmarked) gave a Dmax of 43% (CRBN/Zinc finger protein Helios (Homo sapiens, UniProt Q96SW2+Q9UKS7); degrader, immunoblot, refers to: Helios; Jurkat; 4 h).
For `NC(=O)NOCCCCCCCCCCCCCCCCCCCC[P+](c1ccccc1)(c1ccccc1)c1ccccc1.O=C([O-])C(F)(F)F`, “oxygen consumption rate” read 26.6% (MT-CYB/UQCRFS1; complex III-dependent respiration, Seahorse XF96; HCT-116; 10 µM, 24 h; relative to: control).
For `O=C(O)c1ccc(Nc2ncc3c(n2)-c2ccc(Cl)cc2C(c2c(F)cccc2F)=NC3)cc1`, the remaining activity was 97% (human ZIPK(h); kinase activity; 1 µM).
The specific binding of `Nc1ncnc2c1ncn2[C@@H]1O[C@H](COP(=O)(O)CP(=O)(O)OP(=O)(O)O)[C@@H](O)[C@H]1O` is reported as 455 CCPM and 482 CCPM (P2X purinoceptor 1 (P2RX1, Homo sapiens, UniProt P51575, E282A); saturation binding; HEK293; 13 nM).
`Cc1noc(NS(=O)(=O)c2ccc(N=NN(O)c3ccccc3)cc2)c1C` has an inhibition of 55 ± 0.09% (α-glucosidase, rat intestine; enzyme activity; 240 µg/mL, added: 4-nitrophenyl α-D-glucopyranoside).
`NC(=O)NOCCCCCCCCCCCCCCCC[P+](c1ccccc1)(c1ccccc1)c1ccccc1.O=C([O-])C(F)(F)F`: “oxygen consumption rate” 94% (MT-CYB/UQCRFS1; complex III-dependent respiration, Seahorse XF96; HCT-116; 0.03 µM, 24 h; relative to: control).
With `CC[C@@H]1[C@H](F)C(=O)N[C@@H]1COc1nccc2cc(C(N)=O)c(OC)cc12` the inhibition was 7.2% (Mixed lineage kinase domain-like protein (MLKL, Homo sapiens, UniProt Q8NB16); ATP-site probe binding, ActivX profiling; THP-1 cell lysate; 0.04 mM, Lys1 site).
For `COc1ccc(C[C@H](N)C(=O)N[C@H]2[C@@H](O)[C@H](n3cnc4c(N(C)C)ncnc43)O[C@@H]2CO)cc1`, the FLuc/RLuc ratio was 0.193 (Protein transport protein Sec61 subunit alpha isoform 1 (Homo sapiens, UniProt P61619); Sec61-dependent translocation, inhibitor, refers to: CD4 signal peptide-FLuc reporter; HEK293; concentration not given; relative to: mock).
The -TΔS of `Oc1ccc(/C=C/c2cc(O)cc(O)c2)cc1` is reported as 4.7 kcal/mol (O-methyltransferase (Sorghum bicolor, UniProt A0A1B6PFV1); ITC; added: ADE+).
`OCCN(CCO)c1nc(N2CCCCC2)c2nc(N(CCO)CCO)nc(N3CCCCC3)c2n1`: “number of binding sites” 44 nmol (Translocator protein (TSPO, Homo sapiens, UniProt P30536); frontal affinity chromatography; platelet membrane affinity column; concentration not given, Abcam isolation kit).
The Hill slope of `COc1cc(O)ccc1C1CC(=O)Nc2c1c(=O)nc(SCc1ccccc1Cl)n2C` (centres unmarked) is reported as -2.1 (Protein lin-28 homolog A (Mus musculus, UniProt Q8K3Y3)).
`O=C1Nc2ccc(Br)cc2C1O` (centres unmarked) — result for “share of total products”: 5.4% (Dehaloperoxidase B ferric; product, HPLC; added: 5-bromoindole 500 µM, H2O2 250 µM).
With `Cc1cccc(N2CC(C(=O)O)CC2=O)c1` (centres unmarked) the fold enrichment was 1.08 (YTH domain-containing family protein 2 (YTHDF2, Homo sapiens, UniProt Q9Y5A9); binding, affinity selection mass spectrometry; relative to: other proteins in batch).
For `Nc1ncnc2c1ncn2[C@@H]1O[C@H](CO[P@](=O)(O)O[P@](=O)(O)O[P@@](=O)(O)S)[C@@H](O)[C@H]1O`, the ΔH was -0.205 kcal/mol (GUK1 (Homo sapiens, UniProt Q16774); ITC; molar ratio 3.506).
With `CC[C@H](C)[C@H](NC(C)=O)C(=O)N[C@@H](CC(N)=O)C(=O)N[C@H](C(=O)N[C@@H](CCCNC(=N)N)C(=O)N[C@@H](CCCCN)C(=O)N[C@@H](CCCNC(=N)N)C(=O)N[C@@H](CC(N)=O)C(=O)N[C@H](C(=O)N[C@@H](CCC(=O)O)C(=O)N[C@@H](CO)C(=O)NCC(=O)N[C@@H](CCC(=O)O)C(=O)N[C@@H](CCC(=O)O)C(=O)N[C@@H](CCC(=O)O)C(=O)N[C@@H](CC(C)C)C(=O)N[C@@H](C)C(=O)N[C@@H](CO)C(=O)N[C@@H](CCCCN)C(=O)N[C@@H](CC(C)C)C(=O)N[C@@H](CC(=O)O)C(N)=O)C(C)C)C(C)C` the binding stoichiometry was 1.08 (KEAP1 Kelch domain; ITC; concentration not given).
`C=CC(=O)N1CCC[C@@H](n2nc(-c3ccc(Oc4ccccc4)cc3)c3c(N)ncnc32)C1` has a remaining activity of 158% (Muscle, skeletal receptor tyrosine-protein kinase (MUSK, Homo sapiens, UniProt O15146); 0.1 µM).
With `O=c1nc(SCc2cc(F)cc(C(F)(F)F)c2)nc(SCc2csc3ccc(Cl)cc23)[nH]1` the relaxed DNA was 6.8% (DNA topoisomerase 2-alpha (TOP2A, Homo sapiens, UniProt P11388); DNA relaxation; 31.25 µM, replicate 2).
`CCC1(O)CCCN(C(=O)c2ccc(-c3ccc(F)c(NC(=O)CCl)c3)cc2)C1` (centres unmarked) gave a protein adduct of 92% (DNA dC->dU-editing enzyme APOBEC-3A (Homo sapiens, UniProt P31941); covalent modifier, intact protein mass spectrometry, refers to: adduct +26309 Da; 500 µM, 1 h, 20-fold molar excess).
For `CCCCCCCC/C=C\CCCCCCCC(=O)OC(COC(=O)CCCCCCCCCCCCCCC)COP(=O)(O)OCCN` (centres unmarked), “fast activation amplitude share” read ~10% (Cyclic nucleotide-gated potassium channel (Winmispira thermophila, UniProt G0GA88); activator, stopped-flow Tl+ flux; DOPC/POX liposomes 3:1; concentration not given, added: cAMP 1 mM).
`O=C(COP(=O)(O)O)[C@@H](O)[C@H](O)[C@H](O)COP(=O)(O)O`: “thermal stability ratio” 1.42 and 1.63 and 1.75 (Dipeptidyl peptidase 1 (CTSC, Homo sapiens, UniProt P53634); thermal proteome profiling; HepG2 cell lysate; concentration not given, 57 over 37 °C; relative to: compound over control).
`NCCCS(=O)(=O)O` — result for “normalised MST signal”: -0.0333 (Sodium- and chloride-dependent taurine transporter (SLC6A6, Homo sapiens, UniProt P31641, G62A); binding, microscale thermophoresis; 15.6 µM, room temperature, added: 50 nM labelled protein; higher = more binding).
Under activity class, `O=C(c1cc(-c2ccc3c(c2)OCCO3)nc2ccccc12)N1CCC(Cc2ccccc2)CC1` is recorded as “inactive” (Kelch-like ECH-associated protein 1, with NRF2 (Mus musculus, UniProt Q9Z2X8); binding; concentration not given, biochemical).
